Published values of several laboratories.
Every numbered part comes from another study and shows a few of its results, in no order.

Study 1
Target: Interferon regulatory factor 7, full length, phosphomimetic (IRF7, Homo sapiens, UniProt Q92985, residues 1-503, S101K/S471D/S472D/S475D/S476D/S477D/S483D/S484D/S487D)
Method: protein-binding microarray
Molecule type: double-stranded DNA, one strand shown
Sample: in vitro
Concentration: 250 nM
Notes: 60-bp whole probe
With: salmon DNA 0.4 mg/ml
Baseline: random background probes
Direction: higher = stronger binding
Constant ends, left off below: GCCTAGCAC … GTCTTGATTCGCTTGACGCTGCTG
Residues (chain): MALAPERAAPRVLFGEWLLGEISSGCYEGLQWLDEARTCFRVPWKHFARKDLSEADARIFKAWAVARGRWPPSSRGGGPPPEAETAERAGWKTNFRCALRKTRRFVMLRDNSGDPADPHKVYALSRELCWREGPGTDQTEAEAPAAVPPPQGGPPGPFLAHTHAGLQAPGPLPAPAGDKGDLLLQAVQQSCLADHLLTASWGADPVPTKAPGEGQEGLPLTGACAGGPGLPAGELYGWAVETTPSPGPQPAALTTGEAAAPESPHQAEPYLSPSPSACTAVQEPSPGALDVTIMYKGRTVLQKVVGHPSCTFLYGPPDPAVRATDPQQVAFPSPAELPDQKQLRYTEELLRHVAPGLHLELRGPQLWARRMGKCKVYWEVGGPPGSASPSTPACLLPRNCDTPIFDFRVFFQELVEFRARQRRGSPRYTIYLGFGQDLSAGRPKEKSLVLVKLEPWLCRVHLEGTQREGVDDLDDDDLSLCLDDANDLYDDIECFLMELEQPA
Sequence | log fluorescence
GACGGTTTCGACTTTGGGGACGTGCTA | 9.72 z-score
GACGATTTCAGTTTCGAAACGTGCTAG | 6.47 z-score
GCATCTATCTTAAATAGGGACGTGCTA | 0.509 z-score
TTAGACCTCAGTTTCGATTAGTGCTAG | 8.6 z-score
TAAGATATCGGGACTGGATTAGTGCTA | 0.115 z-score
ATAGATTTCGGGACTGGATTAGTGCTA | 0.314 z-score
GAGGGTATCGGACTGGGGACGTGCTAG | -0.604 z-score
GACGGTCGCCTACTGCTGACGTGCTAG | -0.846 z-score
GACGAACTGAGTATCGCGACGTGCTAG | -0.129 z-score
TTAGAACTGCGACTGGATTAGTGCTAG | -0.318 z-score
TTTTTTTTGTATTTTTGATAGTGCTAG | 0.582 z-score
GACGGACTGGGTTTCGGGATGTGCTAG | 3.09 z-score
GACGGATTCCTTTTCCTGACGTGCTAG | 1.95 z-score

Study 2
Target: Histone acetyltransferase KAT6A, winged helix 2, GST fusion (KAT6A, Homo sapiens, UniProt Q92794, residues 85-181)
Method: protein binding microarray
Molecule type: double-stranded DNA, one strand shown
Sample: in vitro
Concentration: not given
Notes: 8-mer, flanks averaged, mean of 2 arrays, mostly near background
Baseline: not given
Direction: higher = stronger binding
Construct (chain): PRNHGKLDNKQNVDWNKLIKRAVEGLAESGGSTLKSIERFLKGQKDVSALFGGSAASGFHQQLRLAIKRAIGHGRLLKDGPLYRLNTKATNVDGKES
Sequence | E-score
TGTGCTAA | 0.217
ATGTTGTA | 0.0439
AATTTTTC | 0.0418
AAAGAAAC | 0.133
AAGTGTAC | -0.158
GGGTGCTA | -0.115
TAGCAACA | 0.144
CCGAGGCA | 0.0738
ATACGGAA | -0.0155
CAAGCTGA | 0.175
TAAAGGCA | 0.141
ATGCCCCC | -0.185
CTTGTGGC | 0.0217
AAGTAGTC | -0.0998

Study 3
Target: Sal-like protein 4, full length isoform A (SALL4, Homo sapiens, UniProt Q9UJQ4, residues 1-1053)
UniProt Q9UJQ4, sequence (whole entry, looked up): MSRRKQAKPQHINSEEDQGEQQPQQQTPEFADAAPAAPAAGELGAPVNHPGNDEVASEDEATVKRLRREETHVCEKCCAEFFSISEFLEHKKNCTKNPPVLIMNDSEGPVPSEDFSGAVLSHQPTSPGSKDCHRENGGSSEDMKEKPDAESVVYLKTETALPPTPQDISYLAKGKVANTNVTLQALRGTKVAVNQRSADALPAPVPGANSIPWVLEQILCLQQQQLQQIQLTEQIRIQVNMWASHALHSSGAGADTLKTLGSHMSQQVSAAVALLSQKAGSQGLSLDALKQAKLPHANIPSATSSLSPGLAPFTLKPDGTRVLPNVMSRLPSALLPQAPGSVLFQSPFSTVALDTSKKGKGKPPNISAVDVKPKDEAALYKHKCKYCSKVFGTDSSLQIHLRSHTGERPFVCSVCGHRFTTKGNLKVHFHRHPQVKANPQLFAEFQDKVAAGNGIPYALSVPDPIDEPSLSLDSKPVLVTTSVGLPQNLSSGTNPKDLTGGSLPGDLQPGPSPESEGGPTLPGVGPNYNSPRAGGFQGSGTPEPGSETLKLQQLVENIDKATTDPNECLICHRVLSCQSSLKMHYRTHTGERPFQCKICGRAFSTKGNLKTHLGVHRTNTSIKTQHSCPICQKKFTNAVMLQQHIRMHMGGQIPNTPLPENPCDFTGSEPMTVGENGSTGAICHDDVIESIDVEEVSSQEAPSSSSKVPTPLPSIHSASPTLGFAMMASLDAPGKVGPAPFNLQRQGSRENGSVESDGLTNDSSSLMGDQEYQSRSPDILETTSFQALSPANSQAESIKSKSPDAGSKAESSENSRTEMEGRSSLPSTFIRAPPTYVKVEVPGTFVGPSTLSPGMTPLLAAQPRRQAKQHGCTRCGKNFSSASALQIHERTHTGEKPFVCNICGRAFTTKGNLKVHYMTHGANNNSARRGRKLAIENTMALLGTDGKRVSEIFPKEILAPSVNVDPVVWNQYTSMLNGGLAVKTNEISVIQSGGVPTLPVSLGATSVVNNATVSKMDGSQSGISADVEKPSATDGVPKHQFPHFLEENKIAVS
Method: universal PBM
Molecule type: double-stranded DNA, one strand shown
Sample: in vitro
Concentration: 600 nM
Notes: 8-mer, flanks averaged, mean of replicates
Direction: higher = stronger binding
Sequence | E-score
ACGGACGC | -0.262
GGACGTAA | -0.0278
ATATTCAC | 0.309
AATGGCGG | -0.254
CAATACAA | 0.252
ATTCCGAA | 0.173
CACCCTGG | -0.225
GATACCAC | 0.0343
CCGTTCGC | -0.273
AGAGCAGA | 0.115
TCGAGTCA | -0.0839
GACGCGCA | -0.217
CCGAGACG | -0.216
CCCTTCGC | -0.174
GGCCCACC | -0.358
CACTACTC | -0.027
CGGACTAA | -0.109

Single results of other studies
Molecule | target | test | system | setting | scale | endpoint | result
PhoQ, residues 284 288 289 292 302 303 SIHLQL | PhoP, residues 12 14 15 18 19 IQFRS (Escherichia coli, UniProt P23836) | Sort-seq, item: YFP reporter | E. coli | PhoQ-PhoP variant library, with: 10 µM Mg2+ | baseline: high Mg2+ state, higher = stronger signaling | fold induction | 13.7

Repeated from above (study 3):
Sequence | E-score
GGCCCACC | -0.358
GGACGTAA | -0.0278
ATATTCAC | 0.309
CACCCTGG | -0.225
ATTCCGAA | 0.173
GACGCGCA | -0.217
